Assay results collected from several papers.
Compare with care: the assays were run in different laboratories. ± gives the spread as reported.

Structure (SMILES) | test | system | setting | tissue uptake [%ID/g]
N=C(N)NCCC[C@@H]1NC(=O)[C@H](CCCCNC(=O)CNC(=O)CNC(=O)CNC(=O)CC[C@H](NC(=O)CCOCCOCCOCCOCCNC(=O)CC[C@H](NC(=O)CN2CCN(CC(=O)O)CCN(CC(=O)O)CCN(CC(=O)O)CC2)C(=O)NCCOCCOCCOCCOCCC(=O)N[C@@H](CCC(=O)NCC(=O)NCC(=O)NCC(=O)NCCCC[C@@H]2NC(=O)[C@@H](Cc3ccccc3)NC(=O)[C@H](CC(=O)O)NC(=O)CNC(=O)[C@H](CCCNC(=N)N)NC2=O)C(=O)NCC(=O)NCC(=O)NCC(=O)NCCCC[C@@H]2NC(=O)[C@@H](Cc3ccccc3)NC(=O)[C@H](CC(=O)O)NC(=O)CNC(=O)[C@H](CCCNC(=N)N)NC2=O)C(=O)NCC(=O)NCC(=O)NCC(=O)NCCCC[C@@H]2NC(=O)[C@@H](Cc3ccccc3)NC(=O)[C@H](CC(=O)O)NC(=O)CNC(=O)[C@H](CCCNC(=N)N)NC2=O)NC(=O)[C@@H](Cc2ccccc2)NC(=O)[C@H](CC(=O)O)NC(=O)CNC1=O [indium-111 labelled] |  | female athymic nude mice, blood | intravenous, 3 µCi, 1 h, U-87 MG glioma xenograft | 0.13
N=C(N)NCCC[C@@H]1NC(=O)[C@H](CC(=O)NC23CNCCNCC(N)(CNCCNC2)CNCCNC3)NC(=O)[C@@H](Cc2ccccc2)NC(=O)[C@H](CC(=O)O)NC(=O)CNC1=O [copper-64 labelled] |  | male nude tumour-bearing mice, spleen | iv, 10 µCi, 4 h | 0.87 ± 0.25
CSCC[C@H](NC(=O)[C@H](CC(C)C)NC(=O)[C@H](Cc1c[nH]cn1)NC(=O)CNC(=O)[C@@H](NC(=O)[C@H](C)NC(=O)[C@H](Cc1c[nH]c2ccccc12)NC(=O)[C@H](CCC(N)=O)NC(=O)[C@H](CC(N)=O)NC(=O)CNC(=O)[C@H](Cc1ccc(O)cc1)NC(=O)[C@H](CCCNC(=N)N)NC(=O)[C@H](CCC(N)=O)NC(=O)[C@@H]1CCCN1C(=O)CN1CCN(CC(=O)O)CCN(CC(=O)O)CCN(CC(=O)O)CC1)C(C)C)C(N)=O [indium-111 labelled] |  | male Swiss nu/nu mice, PC-3 xenograft, blood | intravenous, 10 pmol, 1 h post injection, 111In or 99mTc labelled | 0.4 ± 0.5
N=C(N)NCCC[C@@H]1NC(=O)[C@H](CCCCNC(=O)CCOCCOCCOCCOCCNC(=O)CC[C@H](NC(=O)[C@H](CCCCNC(=O)c2ccc(NN)nc2)NC(=O)c2ccc(NN)nc2)C(=O)NCCOCCOCCOCCOCCC(=O)NCCCC[C@@H]2NC(=O)[C@@H](Cc3ccccc3)NC(=O)[C@H](CC(=O)O)NC(=O)CNC(=O)[C@H](CCCNC(=N)N)NC2=O)NC(=O)[C@@H](Cc2ccccc2)NC(=O)[C@H](CC(=O)O)NC(=O)CNC1=O [technetium-99m labelled] |  | female athymic nude mice, lungs | intravenous, 0.1 MBq, 1 h, U-87 MG glioma xenograft | 2.93 ± 0.65
CSCC[C@H](NC(=O)[C@H](CC(=O)O)NC(=O)[C@H](CO)NC(=O)[C@H](Cc1c[nH]cn1)NC(=O)[C@H](Cc1c[nH]c2ccccc12)NC(=O)CN1CCN(CC(=O)O)CCN(CC(=O)O)CCN(CC(=O)O)CC1)C(=O)N[C@@H](CCC(=O)O)C(=O)N[C@@H](Cc1c[nH]c2ccccc12)C(=O)N[C@@H](Cc1c[nH]c2ccccc12)C(=O)N[C@@H](Cc1ccc(O)cc1)C(=O)N[C@@H](CC(C)C)C(=O)N[C@@H](CC(C)C)C(=O)NCC(=O)N[C@@H](CCCCNC(=O)COCCOCCNC(=O)CCN1C(=O)C=CC1=O)C(=O)O [copper-64 labelled] | gamma counting | nude mice bearing BGC-823 tumours, blood | intravenous, 0.74 MBq (0.02 nmol), 4 h | 6.5
CC(C)[C@H](NC(=O)[C@H](C)N)C(=O)N[C@@H](CCCNC(=N)N)C(=O)N[C@H](C(=O)N[C@@H](CO)C(=O)N[C@@H](C)C(=O)N[C@@H](CC(=O)O)C(=O)NCCOCCOCCOCCOCCC(=O)N[C@@H](CCCCNC(=O)CN1CCN(CC(=O)O)CCN(CC(=O)O)CC1)C(=O)O)[C@@H](C)O [fluorine-18 labelled] | gamma counting | BALB/c nude mice, female, subcutaneous tumour, kidney | intravenous, 3.7 MBq, 2 h | 4.96 ± 0.2
N=C(N)NCCC[C@@H]1NC(=O)[C@H](CCCCNC(=O)CC[C@H](NC(=O)[C@H](CCCCNC(=O)c2ccc(NN)nc2)NC(=O)c2ccc(NN)nc2)C(=O)NCCCC[C@@H]2NC(=O)[C@@H](Cc3ccccc3)NC(=O)[C@H](CC(=O)O)NC(=O)CNC(=O)[C@H](CCCNC(=N)N)NC2=O)NC(=O)[C@@H](Cc2ccccc2)NC(=O)[C@H](CC(=O)O)NC(=O)CNC1=O [technetium-99m labelled] |  | female athymic nude mice, blood | intravenous, 0.1 MBq, 1 h, U-87 MG glioma xenograft | 0.81 ± 0.04
N=C(N)NCCC[C@@H]1NC(=O)[C@H](CCCCNC(=O)CCOCCOCCOCCOCCNC(=O)CC[C@H](NC(=O)CCOCCOCCOCCOCCNC(=O)CC[C@H](NC(=O)CN2CCN(CC(=O)O)CCN(CC(=O)O)CCN(CC(=O)O)CC2)C(=O)NCCOCCOCCOCCOCCC(=O)N[C@@H](CCC(=O)NCCOCCOCCOCCOCCC(=O)NCCCC[C@@H]2NC(=O)[C@@H](Cc3ccccc3)NC(=O)[C@H](CC(=O)O)NC(=O)CNC(=O)[C@H](CCCNC(=N)N)NC2=O)C(=O)NCCOCCOCCOCCOCCC(=O)NCCCC[C@@H]2NC(=O)[C@@H](Cc3ccccc3)NC(=O)[C@H](CC(=O)O)NC(=O)CNC(=O)[C@H](CCCNC(=N)N)NC2=O)C(=O)NCCOCCOCCOCCOCCC(=O)NCCCC[C@@H]2NC(=O)[C@@H](Cc3ccccc3)NC(=O)[C@H](CC(=O)O)NC(=O)CNC(=O)[C@H](CCCNC(=N)N)NC2=O)NC(=O)[C@@H](Cc2ccccc2)NC(=O)[C@H](CC(=O)O)NC(=O)CNC1=O [indium-111 labelled] |  | female athymic nude mice, eyes | intravenous, 3 µCi, 0.5 h, U-87 MG glioma xenograft | 2.78 ± 2.01
CC(C)C[C@H](NC(=O)[C@H](Cc1ccc(O)cc1)NC(=O)[C@@H](CCCNC(=N)N)NC(=O)[C@@H](CO)NC(=O)[C@H](Cc1ccccc1)NC(=O)[C@H](CC1CCCCC1)NC(=O)[C@H](CC(=O)O)NC(=O)CCC(C(=O)O)N1CCCN2CCN(CCCN(CC(=O)O)CC2)CC1)C(=O)N[C@@H](Cc1c[nH]c2ccccc12)C(=O)N[C@@H](CO)C(=O)O (stereo partly shown) [copper-64 labelled] |  | female NMRI nude mice, spleen | 1 h p.i. | 2.8 ± 0.3
N=C(N)NCCC[C@@H]1NC(=O)[C@H](CCCCNC(=O)CC[C@H](NC(=O)CCOCCOCCOCCOCCNC(=O)CN2CCN(CC(=O)O)CCN(CC(=O)O)CCN(CC(=O)O)CC2)C(=O)NCCCC[C@@H]2NC(=O)[C@@H](Cc3ccccc3)NC(=O)[C@H](CC(=O)O)NC(=O)CNC(=O)[C@H](CCCNC(=N)N)NC2=O)NC(=O)[C@@H](Cc2ccccc2)NC(=O)[C@H](CC(=O)O)NC(=O)CNC1=O [indium-111 labelled] |  | female athymic nude mice, eyes | intravenous, 3 µCi, 0.5 h, U-87 MG glioma xenograft | 0.94 ± 0.18
CSCC[C@H](NC(=O)[C@H](CC(C)C)NC(=O)[C@H](Cc1c[nH]cn1)NC(=O)CNC(=O)[C@@H](NC(=O)[C@H](C)NC(=O)[C@H](Cc1c[nH]c2ccccc12)NC(=O)[C@H](CCC(N)=O)NC(=O)CCCCCCCNC(=O)CCC(=O)Nc1ccc(CNC23CNCCNCC(N)(CNCCNC2)CNCCNC3)cc1)C(C)C)C(N)=O [copper-64 labelled] |  | female SCID mice, PC-3 xenograft, tumour | intravenous, 0.6 MBq, 1 h | 13 ± 0.932
N=C(N)NCCC[C@@H]1NC(=O)[C@H](CCCCNC(=O)CCOCCOCCOCCOCCNC(=O)CN2CCN(CC(=O)O)CCN(CC(=O)O)CCN(CC(=O)O)CC2)NC(=O)[C@@H](Cc2ccccc2)NC(=O)[C@H](CC(=O)O)NC(=O)CNC1=O [indium-111 labelled] |  | female athymic nude mice, liver | intravenous, 3 µCi, 24 h, U-87 MG glioma xenograft | 0.47 ± 0.07
CSCC[C@H](NC(=O)[C@H](CC(C)C)NC(=O)[C@H](Cc1c[nH]cn1)NC(=O)CNC(=O)[C@@H](NC(=O)[C@H](C)NC(=O)[C@H](Cc1c[nH]c2ccccc12)NC(=O)[C@H](CCC(N)=O)NC(=O)CNC(=O)[C@H](CO)NC(=O)CNC(=O)CCCCCCCNC(=O)CCC(=O)Nc1ccc(CNC23CNCCNCC(N)(CNCCNC2)CNCCNC3)cc1)C(C)C)C(N)=O [copper-64 labelled] |  | female SCID mice, PC-3 xenograft, tumour | intravenous, 0.6 MBq, 1 h | 8.54 ± 0.806

For quick reference, copied from above:
Structure (SMILES) | test | system | setting | tissue uptake [%ID/g]
CSCC[C@H](NC(=O)[C@H](CC(C)C)NC(=O)[C@H](Cc1c[nH]cn1)NC(=O)CNC(=O)[C@@H](NC(=O)[C@H](C)NC(=O)[C@H](Cc1c[nH]c2ccccc12)NC(=O)[C@H](CCC(N)=O)NC(=O)CNC(=O)[C@H](CO)NC(=O)CNC(=O)CCCCCCCNC(=O)CCC(=O)Nc1ccc(CNC23CNCCNCC(N)(CNCCNC2)CNCCNC3)cc1)C(C)C)C(N)=O [copper-64 labelled] |  | female SCID mice, PC-3 xenograft, tumour | intravenous, 0.6 MBq, 1 h | 8.54 ± 0.806
